Published values from different studies.

[O-][N+]1=C(c2ccsc2)C2=NCCCN2c2ccccc21 — MIC (Cutibacterium acnes; microbial growth): 32 µg/mL
C=C(NC(=O)C(=C)NC(=O)c1csc(C2=NC3c4csc(n4)C4NC(=O)c5csc(n5)C(C(C)(O)C(C)O)NC(=O)C5CSC(=N5)C(=CC)NC(=O)C(C(C)O)NC(=O)c5csc(n5)C3(CC2)NC(=O)C(C)NC(=O)C(=C)NC(=O)C(Cc2ccccc2)NC(=O)C(C(C)CC)NC2C=Cc3c(C(C)O)cc(nc3C2O)C(=O)OC4C)n1)C(N)=O (stereo not drawn) — MIC (Bacillus sp.; broth microdilution; ATCC 27859; 18 h, 37 °C): 0.087 µg/mL
CC[C@H](C)[C@H](NC(=O)[C@H](CCCCN)NC(=O)[C@H](CC(N)=O)NC(=O)[C@H](Cc1c[nH]c2ccccc12)NC(=O)[C@H](Cc1ccccc1)NC(=O)[C@H](CCCCN)NC(=O)[C@H](CCCCNC(=N)N)NC(=O)[C@H](CC(C)C)NC(=O)[C@H](Cc1c[nH]c2ccccc12)NC(=O)[C@H](CCCCN)NC(=O)[C@H](CCCCNC(=N)N)NC(=O)[C@H](CC(C)C)NC(=O)CNC(C)=O)C(=O)N[C@@H](CCCCN)C(=O)N[C@@H](CCCCNC(=N)N)C(N)=O — MIC (Enterobacter aerogenes; broth microdilution; multidrug-resistant): 6.25 µM
CC(C)C[C@H](NC(=O)[C@H](CC(C)C)NC(=O)[C@H](C)NC(=O)[C@H](NC(=O)[C@H](CO)NC(=O)[C@@H](CCCCN)NC(=O)[C@@H](CC(C)C)NC(=O)[C@@H](N)Cc1ccccc1)[C@@H](O)C(N)=O)C(=O)O — MIC (Bacillus subtilis Staphylococcus epidermidis; ATCC 14990; tested as TFA salt): > 32 µg/mL
CN(Cc1cc(C2CC2)on1)C(=O)c1cccc(-c2ccc3c(c2)CCO3)c1 — MIC (Cryptococcus neoformans; broth microdilution; H99, YPD): > 64 µg/mL
CC[C@H](C)[C@H](NC(=O)[C@@H]1CC(=O)N[C@@H](CO)C(=O)N[C@@H](CC(C)C)C(=O)NCC(=O)N[C@@H](CO)C(=O)N[C@@H](CO)C(=O)N2CCC[C@H]2C(=O)N[C@@H](Cc2ccc(O)cc2)C(=O)N[C@@H](CC(N)=O)C(=O)N1)C(=O)N[C@@H](CC(C)C)C(=O)NCC(=O)N[C@@H](Cc1ccc(O)cc1)C(=O)N1CCC[C@H]1C(=O)N[C@@H](C)C(=O)N[C@@H](CC(C)C)C(=O)N[C@H](C(=O)N[C@H](C(=O)N[C@H](C(=O)N[C@@H](Cc1ccc(O)cc1)C(=O)N1CCC[C@H]1C(=O)O)[C@@H](C)CC)C(C)C)[C@@H](C)CC — MIC (Saccharomyces cerevisiae): > 128 µg/mL
CC[C@H](C)[C@@H]1NC(=O)[C@H](CC(C)C)NC(=O)[C@@H](NC(=O)[C@H](CO)NC(=O)[C@H](CCCNC(=N)N)NC(=O)[C@@H](N)CO)CSSC[C@@H](C(=O)N[C@@H](CCC(N)=O)C(=O)N[C@@H](CCCNC(=N)N)C(=O)N[C@@H](CC(C)C)C(=O)N[C@@H](Cc2ccccc2)C(N)=O)NC(=O)[C@H](C(C)C)NC1=O — MIC (Candidozyma auris; broth microdilution; DSM 21092): 27 µg/mL
C[C@@H](c1ccn(Cc2ccc(OC(F)(F)F)cc2)n1)[C@](O)(Cn1cnnn1)c1ccc(F)cc1F — MIC (Candidozyma auris; microbial growth; D12; 24 h, drug-resistant strain, clinical isolate): 0.5 µg/mL
CC[C@@H](C)[C@@H](NC(=O)[C@@H](C)NC(=O)[C@@H](CCCCN)NC(=O)[C@@H](CC(C)C)NC(=O)[C@@H](C)NC(=O)[C@H](NC(=O)[C@@H](Cc1c[nH]cn1)NC(=O)[C@@H](CC(C)C)NC(=O)[C@H](NC(=O)[C@H](NC(=O)[C@@H](CCCCN)NC(=O)[C@@H](CCCCN)NC(=O)[C@@H](C)NC(=O)[C@@H](CO)NC(=O)[C@@H](CCCCN)NC(=O)[C@@H](Cc1ccccc1)NC(=O)[C@H](NC(=O)[C@@H](CCCCN)NC(=O)[C@@H](CC(C)C)NC(=O)[C@@H](Cc1ccccc1)NC(=O)[C@@H](CO)NC(=O)[C@@H](CCCCN)NC(=O)[C@@H](Cc1c[nH]c2ccccc12)NC(=O)[C@@H](CCCCN)NC(C)=O)[C@H](C)O)[C@H](C)O)C(C)C)[C@H](C)O)C(=O)N[C@H](CO)C(=O)N[C@H](CO)C(N)=O — MIC (Acinetobacter baumannii; 985, Mueller-Hinton broth; 24 h, 37 °C): 0.8 µM
CC[C@H](C)[C@@H]1NC(=O)CNC(=O)[C@H](CCCCN)NC(=O)[C@H](C)NC(=O)[C@H](CCC(=O)O)NC(=O)[C@H](Cc2ccccc2)NC(=O)[C@H](CO)NC(=O)[C@H](CC(C)C)NC(=O)[C@H](C(C)C)NC(=O)[C@H](CC(=O)O)NC(=O)[C@@H](NC(=O)[C@@H](NC(=O)[C@@H](N)C(C)C)[C@@H](C)O)CSSC[C@@H]2NC(=O)[C@H](CO)NC(=O)CNC(=O)CNC(=O)[C@H](CCCCN)NC(=O)[C@H](CCCCN)NC(=O)[C@H](CCCNC(=N)N)NC(=O)[C@H](CC(C)C)NC(=O)[C@H](C)NC(=O)[C@H]([C@@H](C)CC)NC(=O)[C@H](CSSC[C@@H](C(=O)N[C@@H](CCCNC(=N)N)C(=O)N[C@@H](CC(N)=O)C(=O)O)NC(=O)[C@H](C(C)C)NC(=O)[C@H](C)NC(=O)[C@H](C(C)C)NC(=O)CNC(=O)[C@H](CC(N)=O)NC(=O)[C@H](CCC(N)=O)NC2=O)NC(=O)[C@H](Cc2c[nH]cn2)NC(=O)[C@H](CC(C)C)NC(=O)[C@H](C)NC(=O)[C@H](C)NC(=O)[C@H](C)NC(=O)[C@H](CO)NC(=O)[C@H](Cc2c[nH]cn2)NC(=O)[C@H](CC(N)=O)NC(=O)[C@H](C(C)C)NC(=O)[C@H](C)NC1=O — MIC (Trichosporon beigelii; broth microdilution; KCTC 7707; 28 °C): 25 µM
CC(C)(C)c1ccc(COc2cc3c(=O)c(C(=O)NCCNCCO)cn(Cc4ccccc4)c3cc2Cl)cc1 — MIC (Cryptococcus neoformans; ATCC 208821; ≥80% growth inhibition): < 0.25 µg/mL
CC(C)c1ccc(Cn2ccc([C@H](C)[C@](O)(Cn3cnnn3)c3ccc(F)cc3F)n2)cc1 — MIC (Candidozyma auris; growth; 789 drug-resistant isolate; 24 h, 30 °C, ≥50% inhibition): 2 µg/mL
CC[C@H](C)[C@H](NC(=O)[C@H](C)NC(=O)[C@@H](NC(=O)[C@H](CC(=O)O)NC(=O)[C@H](CCCCN)NC(=O)[C@H](CO)NC(=O)[C@@H](NC(=O)[C@H](CC(N)=O)NC(=O)[C@H](C)NC(=O)[C@@H](NC(=O)[C@H](CCC(=O)O)NC(=O)[C@H](CCCCN)NC(=O)[C@@H](NC(=O)[C@@H](NC(=O)[C@H](Cc1c[nH]cn1)NC(=O)[C@H](CCCCN)NC(=O)[C@@H](NC(=O)[C@H](CCCCN)NC(=O)[C@H](CCCCN)NC(=O)[C@@H](NC(=O)[C@H](CC(C)C)NC(=O)[C@H](CCCCN)NC(=O)[C@H](CC(N)=O)NC(=O)[C@H](Cc1ccccc1)NC(=O)[C@H](CCCNC(=N)N)NC(=O)[C@H](CCCCN)NC(=O)[C@H](CCCNC(=N)N)NC(=O)[C@H](Cc1ccccc1)NC(=O)CN)C(C)C)C(C)C)[C@@H](C)O)[C@@H](C)CC)[C@@H](C)O)C(C)C)C(C)C)C(=O)N[C@H](C(=O)N[C@@H](C)C(=O)NCC(=O)N[C@@H](CO)C(=O)NCC(=O)N[C@H](C(=O)N[C@@H](C)C(=O)N[C@H](C(=O)NCC(=O)N[C@@H](C)C(=O)N[C@@H](C)C(=O)N[C@@H](CCSC)C(N)=O)C(C)C)C(C)C)C(C)C — MIC (S. maltophilia, M. morganii, S. fonticola; clinical isolates): ≥ 64 µg/mL
CN[C@@H]1[C@H](O)[C@H](NC)[C@H]2O[C@]3(O)[C@H](O[C@@H]2[C@H]1O)O[C@H](C)C[C@@]3(O)CNCc1ccc(F)cc1 — MIC (Streptococcus pneumoniae; OVA2 drug resistant): 3 µg/mL
[O-][N+]1=C(c2ccccc2)C2=NCCCN2c2ncccc21 — MIC (Clostridium sporogenes; microbial growth; ATCC3584): 0.25 µg/mL
CN[C@@H]1[C@H](O)[C@H](NC)[C@H]2O[C@]3(O)[C@H](O[C@@H]2[C@H]1O)O[C@H](C)C[C@@]3(O)CNCc1ccc(OC(F)(F)F)cc1 — MIC (Streptococcus pneumoniae; OVA2 drug resistant): 6 µg/mL
[O-][N+]1=C(c2ccc(Cl)cc2)C2=NCCCCN2c2ccccc21 — MIC (Clostridium sporogenes; microbial growth; ATCC3584): 1 µg/mL
CC[C@H](C)[C@H](NC(=O)[C@H](CO)NC(=O)[C@H](CO)NC(=O)[C@H](Cc1ccccc1)NC(=O)CN)C(=O)N[C@@H](Cc1ccccc1)C(=O)N[C@@H](CCCNC(=N)N)C(=O)NCC(=O)N[C@H](C(=O)N[C@@H](C)C(=O)N[C@@H](CCCCN)C(N)=O)C(C)C — MIC (Escherichia coli; ATCC 8739; added: 4 µM FeCl3): > 128 µM
